# Published values gathered from unrelated publications.
# Numbered parts are unrelated; each lists some results of a single study.
# UniProt Q96PN8, sequence (whole entry, looked up): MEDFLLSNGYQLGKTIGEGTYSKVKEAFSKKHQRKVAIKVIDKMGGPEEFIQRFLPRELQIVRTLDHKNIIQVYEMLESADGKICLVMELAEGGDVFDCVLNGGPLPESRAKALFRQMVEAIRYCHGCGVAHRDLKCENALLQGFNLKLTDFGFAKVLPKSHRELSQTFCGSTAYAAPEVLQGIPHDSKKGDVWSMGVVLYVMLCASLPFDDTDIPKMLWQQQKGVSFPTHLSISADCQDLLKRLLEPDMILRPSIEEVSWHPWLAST
# UniProt P48736, sequence (whole entry, looked up): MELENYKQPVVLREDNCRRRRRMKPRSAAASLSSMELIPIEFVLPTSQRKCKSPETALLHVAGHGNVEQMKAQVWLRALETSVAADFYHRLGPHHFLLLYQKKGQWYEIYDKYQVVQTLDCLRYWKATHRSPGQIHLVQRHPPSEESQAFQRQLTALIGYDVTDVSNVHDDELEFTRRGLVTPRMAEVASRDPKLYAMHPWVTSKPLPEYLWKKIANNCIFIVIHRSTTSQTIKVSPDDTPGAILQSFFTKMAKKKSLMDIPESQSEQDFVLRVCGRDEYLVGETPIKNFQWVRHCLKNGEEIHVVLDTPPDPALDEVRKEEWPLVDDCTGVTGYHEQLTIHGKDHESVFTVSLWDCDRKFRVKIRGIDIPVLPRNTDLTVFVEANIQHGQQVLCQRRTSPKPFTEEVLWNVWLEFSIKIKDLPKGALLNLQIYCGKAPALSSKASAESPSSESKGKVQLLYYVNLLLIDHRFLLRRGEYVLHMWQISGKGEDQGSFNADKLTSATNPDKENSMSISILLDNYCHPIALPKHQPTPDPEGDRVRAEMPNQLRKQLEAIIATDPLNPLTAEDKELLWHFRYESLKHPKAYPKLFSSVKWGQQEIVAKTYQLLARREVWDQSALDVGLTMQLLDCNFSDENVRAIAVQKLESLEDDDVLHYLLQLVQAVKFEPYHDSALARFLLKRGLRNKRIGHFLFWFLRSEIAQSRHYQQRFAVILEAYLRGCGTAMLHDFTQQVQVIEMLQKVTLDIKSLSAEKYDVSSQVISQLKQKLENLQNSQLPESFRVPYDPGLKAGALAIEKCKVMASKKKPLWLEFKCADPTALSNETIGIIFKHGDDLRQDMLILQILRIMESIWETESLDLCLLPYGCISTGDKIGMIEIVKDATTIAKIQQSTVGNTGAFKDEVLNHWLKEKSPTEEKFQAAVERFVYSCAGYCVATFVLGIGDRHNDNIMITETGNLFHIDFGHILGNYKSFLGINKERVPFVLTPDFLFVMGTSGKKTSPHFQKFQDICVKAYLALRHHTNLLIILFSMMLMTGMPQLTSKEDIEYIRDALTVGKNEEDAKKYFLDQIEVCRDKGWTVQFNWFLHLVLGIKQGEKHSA

# Block 1 — mode: inhibitor; tested at: 77 µM
# Target: DNA polymerase theta, ATPase domain (POLQ, Homo sapiens, UniProt O75417)
# UniProt O75417, sequence (whole entry, unmodified, looked up): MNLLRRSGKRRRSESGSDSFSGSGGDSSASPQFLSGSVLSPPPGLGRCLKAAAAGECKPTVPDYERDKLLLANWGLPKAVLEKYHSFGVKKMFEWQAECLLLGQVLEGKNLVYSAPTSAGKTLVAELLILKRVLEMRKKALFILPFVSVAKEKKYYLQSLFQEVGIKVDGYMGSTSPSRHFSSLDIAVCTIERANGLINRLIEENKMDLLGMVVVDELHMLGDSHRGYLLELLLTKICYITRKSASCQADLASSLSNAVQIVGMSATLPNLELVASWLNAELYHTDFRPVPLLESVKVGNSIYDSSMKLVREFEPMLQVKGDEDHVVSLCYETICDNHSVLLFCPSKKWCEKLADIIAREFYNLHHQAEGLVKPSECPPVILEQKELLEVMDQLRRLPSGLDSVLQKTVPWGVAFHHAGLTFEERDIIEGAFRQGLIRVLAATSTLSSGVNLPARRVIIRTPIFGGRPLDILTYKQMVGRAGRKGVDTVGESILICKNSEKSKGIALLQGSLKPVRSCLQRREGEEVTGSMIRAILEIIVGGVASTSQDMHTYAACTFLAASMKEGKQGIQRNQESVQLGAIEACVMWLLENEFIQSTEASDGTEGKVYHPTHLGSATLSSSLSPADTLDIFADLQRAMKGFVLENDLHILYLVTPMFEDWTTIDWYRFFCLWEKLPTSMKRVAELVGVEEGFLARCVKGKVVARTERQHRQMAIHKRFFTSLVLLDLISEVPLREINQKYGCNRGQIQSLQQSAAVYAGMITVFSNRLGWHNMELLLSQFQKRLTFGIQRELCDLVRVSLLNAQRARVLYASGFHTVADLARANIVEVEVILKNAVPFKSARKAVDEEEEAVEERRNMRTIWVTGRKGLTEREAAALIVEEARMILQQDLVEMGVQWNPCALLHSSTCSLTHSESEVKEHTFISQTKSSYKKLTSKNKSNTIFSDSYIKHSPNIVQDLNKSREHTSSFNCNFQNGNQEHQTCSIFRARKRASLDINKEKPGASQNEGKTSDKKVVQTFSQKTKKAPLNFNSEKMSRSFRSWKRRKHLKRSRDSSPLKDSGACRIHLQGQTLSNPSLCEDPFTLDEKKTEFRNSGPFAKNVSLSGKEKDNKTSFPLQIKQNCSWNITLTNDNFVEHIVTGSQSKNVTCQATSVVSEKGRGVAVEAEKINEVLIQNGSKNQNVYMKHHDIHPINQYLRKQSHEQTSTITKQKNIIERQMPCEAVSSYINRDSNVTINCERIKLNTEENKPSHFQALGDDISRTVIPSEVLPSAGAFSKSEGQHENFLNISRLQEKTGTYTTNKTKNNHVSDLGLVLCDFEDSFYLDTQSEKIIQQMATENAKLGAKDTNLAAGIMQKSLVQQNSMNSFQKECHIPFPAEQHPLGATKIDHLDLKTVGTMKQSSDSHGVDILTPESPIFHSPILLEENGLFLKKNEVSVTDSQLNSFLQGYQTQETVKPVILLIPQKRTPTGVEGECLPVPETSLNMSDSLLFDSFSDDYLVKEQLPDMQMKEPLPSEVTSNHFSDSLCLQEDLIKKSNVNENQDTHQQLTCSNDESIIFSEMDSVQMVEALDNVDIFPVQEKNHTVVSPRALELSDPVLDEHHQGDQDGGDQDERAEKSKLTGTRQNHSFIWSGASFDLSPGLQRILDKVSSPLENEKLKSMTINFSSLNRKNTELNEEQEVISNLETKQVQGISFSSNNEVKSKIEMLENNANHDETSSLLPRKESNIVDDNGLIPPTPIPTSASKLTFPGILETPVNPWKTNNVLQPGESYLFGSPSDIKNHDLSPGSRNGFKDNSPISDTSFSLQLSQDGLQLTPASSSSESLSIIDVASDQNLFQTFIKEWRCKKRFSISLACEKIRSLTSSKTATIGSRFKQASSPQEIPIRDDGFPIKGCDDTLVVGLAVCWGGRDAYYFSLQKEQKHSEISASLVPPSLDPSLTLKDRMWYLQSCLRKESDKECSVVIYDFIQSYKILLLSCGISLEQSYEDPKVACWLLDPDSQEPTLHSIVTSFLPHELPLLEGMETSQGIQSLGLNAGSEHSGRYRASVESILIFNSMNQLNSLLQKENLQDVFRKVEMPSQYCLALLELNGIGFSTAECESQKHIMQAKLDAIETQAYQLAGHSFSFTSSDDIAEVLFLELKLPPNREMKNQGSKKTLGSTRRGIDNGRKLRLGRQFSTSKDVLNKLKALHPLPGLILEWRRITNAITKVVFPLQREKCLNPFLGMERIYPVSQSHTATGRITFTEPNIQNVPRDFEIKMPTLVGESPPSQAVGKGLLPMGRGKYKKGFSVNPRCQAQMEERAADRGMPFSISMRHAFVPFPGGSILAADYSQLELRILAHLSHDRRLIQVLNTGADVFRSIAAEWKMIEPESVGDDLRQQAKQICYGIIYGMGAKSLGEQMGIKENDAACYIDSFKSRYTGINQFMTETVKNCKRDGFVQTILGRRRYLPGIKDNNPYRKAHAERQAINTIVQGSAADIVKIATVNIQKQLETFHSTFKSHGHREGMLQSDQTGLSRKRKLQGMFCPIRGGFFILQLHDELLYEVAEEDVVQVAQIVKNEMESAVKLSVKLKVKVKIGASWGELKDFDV
SMILES,remaining activity [%]
OCCOCCN1CCN(C2=Nc3ccccc3Sc3ccccc32)CC1,80.5
O=C1CN(/N=C/c2ccc([N+](=O)[O-])o2)C(=O)N1,101
COc1ccc2cc([C@@H](C)C(=O)O)ccc2c1,90.6
CNCCCC12CCC(c3ccccc31)c1ccccc12,101

# Block 2 — observed: enzyme activity; mode: inhibitor; tested at: 0.5 µM; baseline: control
# Target: Serine/threonine-protein kinase 10 (STK10, Homo sapiens, UniProt O94804)
# UniProt O94804, sequence (whole entry, looked up): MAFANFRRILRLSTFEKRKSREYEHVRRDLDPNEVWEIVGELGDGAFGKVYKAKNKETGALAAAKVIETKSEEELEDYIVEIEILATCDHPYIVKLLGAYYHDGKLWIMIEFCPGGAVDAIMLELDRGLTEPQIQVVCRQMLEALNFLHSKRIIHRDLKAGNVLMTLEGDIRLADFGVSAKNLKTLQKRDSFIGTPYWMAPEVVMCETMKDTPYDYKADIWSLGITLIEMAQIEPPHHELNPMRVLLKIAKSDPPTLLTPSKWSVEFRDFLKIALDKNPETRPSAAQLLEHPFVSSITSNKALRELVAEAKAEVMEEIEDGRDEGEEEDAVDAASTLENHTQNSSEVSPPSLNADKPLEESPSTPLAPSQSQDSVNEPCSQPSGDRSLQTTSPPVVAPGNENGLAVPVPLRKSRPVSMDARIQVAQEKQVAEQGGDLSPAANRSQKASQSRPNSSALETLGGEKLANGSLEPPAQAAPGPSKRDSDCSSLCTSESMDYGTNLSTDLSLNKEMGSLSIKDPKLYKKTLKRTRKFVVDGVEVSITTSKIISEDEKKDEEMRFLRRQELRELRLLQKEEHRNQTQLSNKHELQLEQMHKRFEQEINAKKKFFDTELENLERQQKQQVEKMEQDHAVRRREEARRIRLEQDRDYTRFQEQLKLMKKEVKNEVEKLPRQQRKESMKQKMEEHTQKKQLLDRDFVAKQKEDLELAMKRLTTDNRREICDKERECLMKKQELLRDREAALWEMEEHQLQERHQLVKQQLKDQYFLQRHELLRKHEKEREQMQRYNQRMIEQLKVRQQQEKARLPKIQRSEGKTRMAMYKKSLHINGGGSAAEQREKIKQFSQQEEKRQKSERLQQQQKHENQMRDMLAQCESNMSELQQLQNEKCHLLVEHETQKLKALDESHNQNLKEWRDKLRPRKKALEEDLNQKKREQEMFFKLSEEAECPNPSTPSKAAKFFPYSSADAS
SMILES,remaining activity [%]
O=C1NC(=O)C(c2cn(CCCO)c3ncccc23)=C1c1cnccn1,104
O=c1c2ccccc2[nH]c(=S)n1CCN1CCC(=C(c2ccc(F)cc2)c2ccc(F)cc2)CC1,96.2
O=S(=O)(c1cccc2cnccc12)N1CCCNCC1,103
NCCNc1ncc(C(N)=O)c(Nc2cccc(C(F)(F)F)c2)n1,74.9
COc1ccc(OC)c2c(=S)c3ccccc3[nH]c12,93.6
CNC(=O)c1cc(Oc2ccc(NC(=O)Nc3ccc(Cl)c(C(F)(F)F)c3)cc2)ccn1,72.4
Cc1cccc(-c2[nH]c(C(C)(C)C)nc2-c2ccc3c(c2)OCO3)n1,94.5
Nc1[nH]nc2nc3ccccc3nc12,94.6
O=C1NC(=O)C(c2cn(CCCn3ccnc3)c3ccccc23)=C1Nc1ccccc1,11.5
Cn1c2ccccc2c2c3c(c4c5ccccc5n(CCC#N)c4c21)CNC3=O,20.1
COc1ccc(C(=O)Nc2sc3c(c2C(N)=O)CCCC3)cc1OC,93.9
O=C(O)c1ccc2c3c1cccc3c(=O)n1c3ccccc3nc21,88.6
Cc1nc(-c2ccccc2)c(-c2ccncc2)o1,96.9
OCC(O)CCON=C1C(c2c(O)[nH]c3ccccc23)=Nc2ccccc21 (centres unmarked),52.1
N#CC(C#N)=C(N)/C(C#N)=C/c1ccc(O)cc1,92.4

# Block 3 — observed: enzyme activity; mode: inhibitor; tested at: 1 µM
# Structure (SMILES): C=CC(=O)N1CCC([C@@H]2CCNc3c(C(N)=O)c(-c4ccc(Oc5ccccc5)cc4)nn32)CC1
target,inhibition [%]
"Phosphatidylinositol 4,5-bisphosphate 3-kinase catalytic subunit alpha isoform (PIK3CA, Homo sapiens, UniProt P42336, I800L)",45
"Tyrosine-protein kinase ABL1, phosphorylated (ABL1, Homo sapiens, UniProt P00519, Y253F)",11
"Cyclin-dependent kinase 17 (CDK17, Homo sapiens, UniProt Q00537)",3
"Non-receptor tyrosine-protein kinase TNK1 (TNK1, Homo sapiens, UniProt Q13470)",32
"Wee1-like protein kinase 2 (WEE2, Homo sapiens, UniProt P0C1S8)",8
"Testis-specific serine/threonine-protein kinase 3 (TSSK3, Homo sapiens, UniProt Q96PN8)",0

# Block 4 — SMILES: CSc1cccnc1N1CCN(Cc2nc3ccccc3[nH]2)CC1; tested at: 1 µM
target,observed,method,notes,baseline,remaining binding [%]
"Cyclin-dependent kinase 3 (CDK3, Homo sapiens, UniProt Q00526)",cell-free assay,competition with immobilised ligand,,,100
"Ephrin type-A receptor 6 (EPHA6, Homo sapiens, UniProt Q9UF33)",cell-free assay,competition with immobilised ligand,,,100
"Serine/threonine-protein kinase mTOR (MTOR, Homo sapiens, UniProt P42345)",cell-free assay,competition with immobilised ligand,,,100
"Tyrosine-protein kinase ABL1, non-phosphorylated (ABL1, Homo sapiens, UniProt P00519, Q252H)",cell-free assay,competition with immobilised ligand,,,67
"Tyrosine-protein kinase ABL1 (ABL1, Homo sapiens, UniProt P00519, F317I)",,KINOMEscan,"F317I mutant, nonphosphorylated",control,100
"Dual specificity protein kinase CLK3 (CLK3, Homo sapiens, UniProt P49761)",cell-free assay,competition with immobilised ligand,,,85
"Mitogen-activated protein kinase 13 (MAPK13, Homo sapiens, UniProt O15264)",cell-free assay,competition with immobilised ligand,,,100
"Interleukin-1 receptor-associated kinase 1 (IRAK1, Homo sapiens, UniProt P51617)",cell-free assay,competition with immobilised ligand,,,73
"Serine/threonine-protein kinase tousled-like 1 (TLK1, Homo sapiens, UniProt Q9UKI8)",cell-free assay,competition with immobilised ligand,,,100
"Phosphatidylinositol 4,5-bisphosphate 3-kinase catalytic subunit gamma isoform (PIK3CG, Homo sapiens, UniProt P48736)",cell-free assay,competition with immobilised ligand,,,64

# Repeated from above (block 2):
SMILES,remaining activity [%]
NCCNc1ncc(C(N)=O)c(Nc2cccc(C(F)(F)F)c2)n1,74.9
COc1ccc(OC)c2c(=S)c3ccccc3[nH]c12,93.6
CNC(=O)c1cc(Oc2ccc(NC(=O)Nc3ccc(Cl)c(C(F)(F)F)c3)cc2)ccn1,72.4
Cc1cccc(-c2[nH]c(C(C)(C)C)nc2-c2ccc3c(c2)OCO3)n1,94.5
Nc1[nH]nc2nc3ccccc3nc12,94.6
O=C1NC(=O)C(c2cn(CCCn3ccnc3)c3ccccc23)=C1Nc1ccccc1,11.5
